Published values gathered from unrelated publications.
Compare with care: the assays were run in different laboratories. “And” joins repeats or separate records; there may be more than shown. ± marks the error that the study gave.
Tripartite terminase subunit 3 C-terminal nuclease domain: Tripartite terminase subunit 3, C-terminal nuclease domain (Human betaherpesvirus 5, UniProt P16732)
Chain of UniProt P16732 (whole entry, looked up): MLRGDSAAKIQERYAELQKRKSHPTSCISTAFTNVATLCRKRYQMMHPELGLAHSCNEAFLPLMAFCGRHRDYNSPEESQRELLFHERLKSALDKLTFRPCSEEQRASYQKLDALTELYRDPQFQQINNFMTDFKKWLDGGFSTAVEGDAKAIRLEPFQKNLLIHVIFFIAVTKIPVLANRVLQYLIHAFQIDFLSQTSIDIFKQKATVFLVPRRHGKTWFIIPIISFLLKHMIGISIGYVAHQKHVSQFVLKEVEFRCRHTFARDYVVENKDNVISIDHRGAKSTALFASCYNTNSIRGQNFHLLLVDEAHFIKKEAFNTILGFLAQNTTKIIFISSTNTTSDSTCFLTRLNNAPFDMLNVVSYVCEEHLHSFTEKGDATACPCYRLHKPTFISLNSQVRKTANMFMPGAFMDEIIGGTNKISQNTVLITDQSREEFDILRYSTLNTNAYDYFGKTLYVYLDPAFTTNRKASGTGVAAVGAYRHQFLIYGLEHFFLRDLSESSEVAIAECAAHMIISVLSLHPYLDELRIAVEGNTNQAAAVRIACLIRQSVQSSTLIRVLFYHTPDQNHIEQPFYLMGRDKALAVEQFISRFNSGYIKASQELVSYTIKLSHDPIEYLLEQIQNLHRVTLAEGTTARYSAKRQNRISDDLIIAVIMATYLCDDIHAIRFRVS
Genome polyprotein NS2B-NS3 protease: Genome polyprotein, NS2B-NS3 protease (ZIKV, UniProt A0A024B7W1)
Chain of UniProt A0A024B7W1 (whole entry, looked up): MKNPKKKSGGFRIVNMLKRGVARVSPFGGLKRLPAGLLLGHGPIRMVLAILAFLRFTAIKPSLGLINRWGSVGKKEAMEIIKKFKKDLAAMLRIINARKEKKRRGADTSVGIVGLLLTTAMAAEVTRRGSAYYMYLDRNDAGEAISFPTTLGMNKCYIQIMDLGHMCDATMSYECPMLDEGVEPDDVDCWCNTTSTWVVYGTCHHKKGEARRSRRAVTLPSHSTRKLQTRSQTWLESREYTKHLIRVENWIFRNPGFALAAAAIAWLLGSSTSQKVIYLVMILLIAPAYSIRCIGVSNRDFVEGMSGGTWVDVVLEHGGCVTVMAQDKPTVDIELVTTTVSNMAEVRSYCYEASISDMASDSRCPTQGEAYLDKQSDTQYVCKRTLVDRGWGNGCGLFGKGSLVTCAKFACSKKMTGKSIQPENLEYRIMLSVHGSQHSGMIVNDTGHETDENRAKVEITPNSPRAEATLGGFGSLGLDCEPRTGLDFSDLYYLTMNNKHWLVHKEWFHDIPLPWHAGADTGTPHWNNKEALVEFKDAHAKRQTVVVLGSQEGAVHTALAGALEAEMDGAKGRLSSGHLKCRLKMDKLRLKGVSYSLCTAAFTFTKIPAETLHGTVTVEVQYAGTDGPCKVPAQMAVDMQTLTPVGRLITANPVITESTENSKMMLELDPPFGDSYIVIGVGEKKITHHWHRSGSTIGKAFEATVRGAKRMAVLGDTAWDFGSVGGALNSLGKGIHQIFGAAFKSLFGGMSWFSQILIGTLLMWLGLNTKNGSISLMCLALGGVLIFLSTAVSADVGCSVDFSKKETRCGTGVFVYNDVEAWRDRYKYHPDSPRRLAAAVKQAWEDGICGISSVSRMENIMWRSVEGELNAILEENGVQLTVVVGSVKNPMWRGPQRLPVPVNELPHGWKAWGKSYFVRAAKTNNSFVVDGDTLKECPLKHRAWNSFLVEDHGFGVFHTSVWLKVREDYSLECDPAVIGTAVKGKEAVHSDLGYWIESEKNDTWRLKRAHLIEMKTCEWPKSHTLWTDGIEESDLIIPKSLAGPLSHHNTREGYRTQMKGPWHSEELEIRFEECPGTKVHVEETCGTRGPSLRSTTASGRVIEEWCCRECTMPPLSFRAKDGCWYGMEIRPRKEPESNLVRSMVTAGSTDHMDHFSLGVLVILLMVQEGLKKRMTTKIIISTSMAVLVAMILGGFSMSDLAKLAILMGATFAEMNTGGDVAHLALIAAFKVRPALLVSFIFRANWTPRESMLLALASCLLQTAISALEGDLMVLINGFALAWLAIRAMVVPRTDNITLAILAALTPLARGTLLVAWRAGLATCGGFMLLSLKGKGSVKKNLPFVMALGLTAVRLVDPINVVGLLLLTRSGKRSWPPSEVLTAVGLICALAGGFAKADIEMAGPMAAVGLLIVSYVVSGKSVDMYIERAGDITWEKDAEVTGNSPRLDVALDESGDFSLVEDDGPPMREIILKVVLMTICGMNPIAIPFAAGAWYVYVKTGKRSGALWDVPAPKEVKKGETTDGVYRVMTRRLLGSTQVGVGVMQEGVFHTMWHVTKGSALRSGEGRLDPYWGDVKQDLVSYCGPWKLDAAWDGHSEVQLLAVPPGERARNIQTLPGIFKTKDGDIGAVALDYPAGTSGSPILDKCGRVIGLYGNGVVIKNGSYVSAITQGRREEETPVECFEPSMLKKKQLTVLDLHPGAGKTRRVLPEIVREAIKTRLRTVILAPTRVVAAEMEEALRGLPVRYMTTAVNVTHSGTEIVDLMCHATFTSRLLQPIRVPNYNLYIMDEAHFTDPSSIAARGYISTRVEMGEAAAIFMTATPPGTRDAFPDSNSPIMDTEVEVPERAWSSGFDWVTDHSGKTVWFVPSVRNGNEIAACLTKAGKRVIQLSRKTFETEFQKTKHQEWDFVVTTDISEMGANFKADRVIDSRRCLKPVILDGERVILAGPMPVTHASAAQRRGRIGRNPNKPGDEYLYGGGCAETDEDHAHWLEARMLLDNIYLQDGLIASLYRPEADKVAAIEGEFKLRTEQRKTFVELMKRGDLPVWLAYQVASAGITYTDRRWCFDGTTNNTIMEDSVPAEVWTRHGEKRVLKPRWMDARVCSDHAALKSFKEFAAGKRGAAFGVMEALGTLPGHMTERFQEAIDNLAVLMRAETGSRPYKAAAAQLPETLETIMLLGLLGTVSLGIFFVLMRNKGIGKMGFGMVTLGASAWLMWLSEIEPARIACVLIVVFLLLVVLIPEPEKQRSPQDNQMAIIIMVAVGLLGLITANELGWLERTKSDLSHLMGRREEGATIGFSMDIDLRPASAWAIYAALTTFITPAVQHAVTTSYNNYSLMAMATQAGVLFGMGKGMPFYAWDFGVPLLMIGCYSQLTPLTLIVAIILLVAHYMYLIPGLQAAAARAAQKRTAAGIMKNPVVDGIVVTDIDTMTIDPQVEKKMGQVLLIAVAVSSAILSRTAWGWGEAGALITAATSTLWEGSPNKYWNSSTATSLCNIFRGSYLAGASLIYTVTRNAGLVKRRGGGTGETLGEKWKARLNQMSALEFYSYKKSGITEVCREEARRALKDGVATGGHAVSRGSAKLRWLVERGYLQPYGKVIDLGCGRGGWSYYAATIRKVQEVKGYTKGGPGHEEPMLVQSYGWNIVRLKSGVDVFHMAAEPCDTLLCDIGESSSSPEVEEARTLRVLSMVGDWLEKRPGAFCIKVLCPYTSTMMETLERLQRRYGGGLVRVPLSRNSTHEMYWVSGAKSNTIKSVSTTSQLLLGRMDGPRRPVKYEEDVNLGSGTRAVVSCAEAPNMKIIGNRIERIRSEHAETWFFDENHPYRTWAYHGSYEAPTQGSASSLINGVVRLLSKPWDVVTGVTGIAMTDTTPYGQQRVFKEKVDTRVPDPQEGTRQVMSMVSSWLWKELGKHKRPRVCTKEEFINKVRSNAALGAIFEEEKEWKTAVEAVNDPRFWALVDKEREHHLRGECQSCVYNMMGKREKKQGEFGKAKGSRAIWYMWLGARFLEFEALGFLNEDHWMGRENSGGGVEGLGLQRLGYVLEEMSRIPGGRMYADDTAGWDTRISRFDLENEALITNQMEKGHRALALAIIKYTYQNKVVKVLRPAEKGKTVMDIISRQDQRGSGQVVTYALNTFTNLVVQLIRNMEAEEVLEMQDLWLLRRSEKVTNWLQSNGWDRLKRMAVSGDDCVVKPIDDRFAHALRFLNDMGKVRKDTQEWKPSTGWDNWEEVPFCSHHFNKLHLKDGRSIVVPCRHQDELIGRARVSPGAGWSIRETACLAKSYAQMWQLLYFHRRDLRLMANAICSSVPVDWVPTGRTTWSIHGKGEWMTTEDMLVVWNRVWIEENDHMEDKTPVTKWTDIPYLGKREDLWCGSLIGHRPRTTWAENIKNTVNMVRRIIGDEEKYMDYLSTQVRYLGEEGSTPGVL
DDB1/DCAF12: DDB1/DCAF12 (Homo sapiens, UniProt Q16531+Q5T6F0)
Chain of UniProt Q5T6F0 (whole entry, looked up): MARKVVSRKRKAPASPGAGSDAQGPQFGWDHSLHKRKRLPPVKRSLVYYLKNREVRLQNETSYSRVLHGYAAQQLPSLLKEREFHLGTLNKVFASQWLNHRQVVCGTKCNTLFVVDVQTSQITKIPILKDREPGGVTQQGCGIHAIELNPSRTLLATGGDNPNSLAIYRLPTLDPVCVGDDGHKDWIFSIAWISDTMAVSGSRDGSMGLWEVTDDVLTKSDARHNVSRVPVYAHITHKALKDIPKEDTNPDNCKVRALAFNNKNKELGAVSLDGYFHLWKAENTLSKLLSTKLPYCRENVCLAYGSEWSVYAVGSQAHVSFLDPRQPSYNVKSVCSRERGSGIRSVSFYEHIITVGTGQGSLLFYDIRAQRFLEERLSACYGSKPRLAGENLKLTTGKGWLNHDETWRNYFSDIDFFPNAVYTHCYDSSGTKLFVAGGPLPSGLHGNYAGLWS
Chain of UniProt P63096 (whole entry, looked up): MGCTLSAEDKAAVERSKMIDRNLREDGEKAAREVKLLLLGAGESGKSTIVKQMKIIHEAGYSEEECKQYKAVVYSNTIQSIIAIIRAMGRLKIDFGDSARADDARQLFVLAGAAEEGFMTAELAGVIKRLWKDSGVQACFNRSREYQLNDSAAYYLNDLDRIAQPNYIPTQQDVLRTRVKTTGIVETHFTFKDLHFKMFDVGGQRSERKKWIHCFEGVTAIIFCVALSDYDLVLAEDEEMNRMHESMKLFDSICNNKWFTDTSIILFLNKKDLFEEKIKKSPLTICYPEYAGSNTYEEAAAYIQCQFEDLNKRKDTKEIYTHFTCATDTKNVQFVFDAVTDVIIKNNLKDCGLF
Chain of UniProt P53680 (whole entry, looked up): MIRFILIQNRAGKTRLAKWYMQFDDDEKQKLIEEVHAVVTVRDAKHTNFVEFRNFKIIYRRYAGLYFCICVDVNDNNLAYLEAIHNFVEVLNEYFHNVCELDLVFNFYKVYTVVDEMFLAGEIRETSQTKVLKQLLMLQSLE

SMILES | target | assay | test system | conditions | IC50
O=c1[nH]c2c(-c3ccccc3)csc2c(=O)n1O | Tripartite terminase subunit 3 C-terminal nuclease domain | endonuclease activity, inhibitor |  | together with: dsDNA substrate | 0.36 ± 0.02 µM
Cc1cc(C)c2sc(NC(=O)c3cc4cccnc4o3)nc2n1 | Genome polyprotein NS2B-NS3 protease | inhibitor |  |  | 168 ± 40 µM
CCOP(=S)(OCC)SC[S+]([O-])CC (centres unmarked) | ache (Electrophorus electricus, UniProt O42275) | enzyme activity, inhibitor |  |  | 395 ± 47.4 µM
Nc1nc2c(ncn2[C@@H]2O[C@H](COP(=O)(O)OP(O)(O)=S)[C@@H](O)[C@H]2O)c(=O)[nH]1 | Guanine nucleotide-binding protein G(i) subunit alpha-1, with Gbeta and Ggamma (GNAI1, Homo sapiens, UniProt P63096) | G protein dissociation, TruPATH BRET |  | receptor-free Gαi1 | 0.0173 µM and 0.00883 µM and 0.0115 µM
Cc1cc(C)c2sc(NC(=O)c3cc4ccccc4o3)nc2n1 | Genome polyprotein NS2B-NS3 protease | inhibitor |  |  | 0.44 ± 0.11 µM
N=C(N)NN | polyamine oxidase (rat) | inhibitor | ischemic brain homogenate | together with: spermine | 400 µM
CCc1c(C)nc(-c2ccc(Cl)s2)nc1Nc1ccc(CC(=O)O)cc1 | 3',5'-cyclic-AMP phosphodiesterase 4D, isoform PDE4D7 (PDE4D, Homo sapiens, UniProt Q08499, S190D/S715A/S717A/Q730L) | cAMP hydrolysis, NADH-coupled fluorescence |  |  | 0.021 µM
NCCOCC(=O)N1CCC[C@H](C(=O)NCc2nc(-c3ccc(C(F)(F)F)cc3)cs2)C1 | 20S proteasome (Plasmodium falciparum, UniProt A0A5K1K7U1+Q8I261+Q8IJT1) |  |  | without WLW-vs, together with: Succ-LLVY-AMC 20 µM | 0.073 µM
CC[C@H](C)[C@H](NC(=O)[C@@H](N)CC(=O)O)C(=O)N[C@@H](CCCNC(=N)N)C(=O)N[C@@H](CCCCN)C(=O)N1CCC[C@H]1C(=O)NCC(=O)N[C@@H](CCC(=O)O)C(=O)N[C@@H](CO)C(=O)N[C@@H](CCC(=O)O)C(=O)N[C@@H](CC(C)C)C(=O)O | DDB1/DCAF12 | binding, TR-FRET competition |  |  | 6.77 µM
CCCC[C@H](NC(=O)[C@H](C[SeH])NC(=O)CNC(=O)[C@H](CCCCN)NC(=O)[C@H](CCCNC(=N)N)NC(=O)[C@H](CCCCN)NC(=O)[C@H](C[SeH])NC(=O)CNC(=O)[C@H](CCCCN)NC(=O)[C@H](CCCNC(=N)N)NC(=O)[C@H](CCCCN)NC(=O)[C@H](C[SeH])NC(=O)[C@H](C)NC(C)=O)C(N)=O | Genome polyprotein NS2B-NS3 protease | enzyme activity, inhibitor | Zika virus | 10 min preincubation, pH 8.5, 20% glycerol, together with: 5 µM Bz-Nle-Lys-Lys-Arg-AMC | 0.067 µM
O=c1[nH]c2cc(-c3ccc(Cl)cc3)ccc2c(=O)n1O | Tripartite terminase subunit 3 C-terminal nuclease domain | enzyme activity, inhibitor |  |  | 6.7 ± 1.2 µM
Nc1c2c(nc3c1C(c1cccc([N+](=O)[O-])c1)c1ccc(OS(=O)(=O)c4ccc(F)cc4)cc1O3)CCCC2 (centres unmarked) | APP (Homo sapiens, UniProt P05067) | Aβ42 self-aggregation, inhibitor, thioflavin T fluorescence |  |  | 4.28 µM
OO | Protein-arginine-phosphatase (ywlE, Bacillus subtilis, UniProt P39155) | inhibitor |  |  | 27.4 ± 3.8 µM
Cc1nnc2c3ccccc3c(N[C@@H](C)[C@H](c3ccccc3)N(C)C)nn12 | KAT2B (Homo sapiens, UniProt Q92831) | binding, NanoBRET tracer displacement | HEK293T |  | 0.27 ± 0.02 µM
C[C@H]1CN(c2n[nH]c3nc(N[C@H]4CC[C@H](NS(=O)(=O)CCC(F)(F)F)CC4)ncc23)CCO1 | AP-2 complex subunit sigma (Homo sapiens, UniProt P53680) | biochemical |  |  | ≥ 20 µM
CC[C@H](C)C[C@H](C)CCCCCCCCC(=O)N[C@H]1C[C@@H](O)[C@@H](NCCN)NC(=O)[C@@H]2[C@@H](O)CCN2C(=O)[C@H]([C@H](O)CCN)NC(=O)[C@H]([C@H](O)[C@@H](O)c2ccc(O)cc2)NC(=O)[C@@H]2C[C@@H](O)CN2C(=O)[C@H]([C@@H](C)O)NC1=O | SLCO1B3 (Homo sapiens, UniProt Q9NPD5) | inhibitor |  |  | 1.2 µM
Oc1ccc2c3c1O[C@H]1c4[nH]c5c(c4C[C@@]4(O)[C@@H](C2)N(CC2CC2)CC[C@]314)C[C@@]1(O)[C@H]2Cc3ccc(O)c4c3[C@@]1(CCN2CC1CC1)[C@H]5O4 | Apical membrane antigen 1 (Plasmodium falciparum, UniProt Q7KQK5) | AMA1-RON2L binding, AlphaScreen | 3D7 | together with: 25 nM each protein | 20 µM
CCC(C(=O)Nc1cc(NC2CNC2)ccc1C)n1cccc2nc(SCc3ccc(F)cc3)nc1-2 (centres unmarked) | USP1 (Homo sapiens, UniProt O94782) | enzyme activity |  |  | > 100 µM
COc1cc(C(=O)N2CC[C@@H](O)[C@@H](N)C2)cc2nc(-c3cc4ccccc4n3CC3CC3)n(C)c12 | CACNA1C (Homo sapiens, UniProt Q13936) | antagonist, intracellular Ca2+ fluorescence | human cells |  | 3.98 µM
CC[C@H](C)[C@H](NC(=O)[C@@H](N)CC(=O)O)C(=O)N[C@@H](CCCNC(=N)N)C(=O)N[C@@H](CCCCN)C(=O)N1CCC[C@H]1C(=O)NCC(=O)N[C@@H](CCC(=O)O)C(=O)N[C@@H](CO)C(=O)N[C@@H](CCC(=O)O)C(=O)N[C@@H](CC(=O)O)C(=O)O | DDB1/DCAF12 | binding, TR-FRET competition |  |  | 222 µM
Oc1c(Cl)cc(Cl)c(Cl)c1Cc1c(O)c(Cl)cc(Cl)c1Cl | Flagellar hook protein FlgE (Leptospira interrogans, UniProt Q8F2C6) |  |  |  | 48.3 µM
O=c1[nH]c2sc(-c3ccc(Cl)cc3)cc2c(=O)n1O | Tripartite terminase subunit 3 C-terminal nuclease domain | enzyme activity, inhibitor |  |  | 0.28 ± 0.04 µM
CN1C(=O)[C@@H](Cc2ccc(O)cc2)NC(=O)CNC(=O)[C@H](Cc2ccc3ccccc3c2)NC(=O)[C@H](CCCNC(=N)N)NC(=O)[C@H]1CCCNC(=O)CN1CCN(CC(=O)O)CCN(CC(=O)O)CCN(CC(=O)O)CC1 | CXCR4 (Homo sapiens, UniProt P61073) |  |  |  | > 1 µM
CC(=O)OCC(=O)[C@@]1(O)CC[C@H]2[C@@H]3CCC4=CC(=O)CC[C@]4(C)C3=CC[C@@]21C | NR3C1 (Homo sapiens, UniProt P04150) |  |  |  | 1.7 µM
O=C(O)CC[C@H](NC(=O)[C@H](CCC(=O)O)NC(=O)[C@H](CO)NC(=O)[C@H](CCC(=O)O)NC(=O)CNC(=O)[C@@H]1CCCN1)C(=O)O | DDB1/DCAF12 | binding, TR-FRET competition |  |  | 15.6 µM
COc1cc(Nc2ncc(F)c(Nc3ccc4c(n3)NC(=O)C(C)(C)O4)n2)cc(OC)c1OC | Cathepsin L2 (CTSV, Homo sapiens, UniProt O60911) |  |  |  | > 10 µM

Excerpt of the above:
SMILES | target | assay | test system | conditions | IC50
Nc1nc2c(ncn2[C@@H]2O[C@H](COP(=O)(O)OP(O)(O)=S)[C@@H](O)[C@H]2O)c(=O)[nH]1 | Guanine nucleotide-binding protein G(i) subunit alpha-1, with Gbeta and Ggamma (GNAI1, Homo sapiens, UniProt P63096) | G protein dissociation, TruPATH BRET |  | receptor-free Gαi1 | 0.0173 µM and 0.00883 µM and 0.0115 µM
O=c1[nH]c2c(-c3ccccc3)csc2c(=O)n1O | Tripartite terminase subunit 3 C-terminal nuclease domain | endonuclease activity, inhibitor |  | together with: dsDNA substrate | 0.36 ± 0.02 µM
